{"data": "Experimental data from different studies", "note": "Protocols differ between the studies behind these lines. ± gives the spread as reported."}
{"Compound": "CC(C)CCN(c1nc(C#N)nc(NC2COC2)n1)C(C)c1ccc(F)cc1 (stereo not shown)", "test system": "CD-1 mouse female, brain", "setting": "intraperitoneal, 10 mg/kg", "endpoint": "AUC brain", "result": "868 ng·h/g"}
{"Compound": "COc1ccc(-c2ccn(CC[C@](C)(C(=O)NO)S(C)(=O)=O)c(=O)c2)c(F)c1", "test system": "CF-1 mouse, female", "setting": "subcutaneous, 300 mg/kg", "endpoint": "AUC", "result": "76300 ± 960 ng·h/mL"}
{"Compound": "CC(C)CCN(Cc1ccc(F)cc1)c1nc(C#N)nc(N2CCOCC2)n1", "test system": "CD-1 mouse female, brain", "setting": "intraperitoneal, 10 mg/kg", "endpoint": "AUC brain", "result": "119 ng·h/g"}
{"Compound": "Cc1cc(C)c(S(=O)(=O)N(CC(=O)O)c2ccc(Nc3ccnc(N4CCCC4)n3)cc2)c(C)c1", "test system": "BALB/c nude mouse HCT-116 xenograft, plasma", "setting": "intraperitoneal, 100 mg/kg", "endpoint": "AUC", "result": "52200 ng·h/mL"}
{"Compound": "CCCCCCCCCCCCCCCCCC(=O)Nc1ccn(C2OC(CO)C(O)C2(F)F)c(=O)n1 (stereo not shown)", "test system": "athymic nude mouse, female, BxPC-3 xenograft, plasma", "setting": "intravenous, 25 mg/kg gemcitabine equivalent", "endpoint": "AUC", "result": "58.3 ± 5.03 µM·h"}
{"Compound": "CCc1nc(N)nc(N)c1C#C[C@H](C)c1cc(-c2cc(C)nc(C)c2)ccc1Cl", "test system": "mouse, plasma", "setting": "oral, 16 mg/kg", "endpoint": "AUC", "result": "2600 ng·h/mL"}
{"Compound": "C=CC(=O)Nc1cc(Nc2nccc(-n3ccc4nc(OC)ccc43)n2)c(OC)cc1N(C)CCN(C)C", "test system": "BALB/c nude mouse, H1975 xenograft, tumour", "setting": "oral, 60 mg/kg", "endpoint": "AUC", "result": "28300 ng·h/g"}
{"Compound": "CCS(=O)(=O)c1ccccc1C(=O)N1CCN(c2nc3ccc(F)cc3s2)C[C@@H]1C", "test system": "mouse, brain", "setting": "oral, 3 mg/kg", "endpoint": "AUC", "result": "181 ± 28 ng·h/mL"}
{"Compound": "CCC(=O)N(C)c1ccc(Cl)c(Cl)c1", "test": "LC-MS/MS", "test system": "mouse C57BL/6 female, plasma", "setting": "intravenous, 2 mg/kg", "endpoint": "AUC extrapolated", "result": "3.96%"}
{"Compound": "N=C(N)NCCC[C@@H]1NC(=O)[C@H](Cc2c[nH]c3ccccc23)NC(=O)[C@@H](CC2CCCCC2)NC(=O)[C@@H]2CCCN2C(=O)[C@@H](NC(=O)CCc2ccccc2)CCCNC1=O", "test system": "C57BL/6J mouse, plasma", "setting": "intravenous, 1 mg/kg, single dose", "endpoint": "AUC", "result": "3470 ng·h/mL"}
{"Compound": "CN(C)CCNC(=O)/C=C/[C@H](Cc1ccccc1)Nc1ccnc2cc(Cl)ccc12", "test system": "ICR mouse healthy, plasma", "setting": "oral, 5 mg/kg", "endpoint": "AUC", "result": "30.1 ng·h/mL"}
{"Compound": "CN1/C(=C/C=C/c2cc(-c3ccccc3)cc(-c3ccccc3)[o+]2)C(C)(C)c2ccccc21", "test system": "mouse CD1, male, plasma", "setting": "intravenous, 1 mg/kg", "endpoint": "AUC extrapolated fraction", "result": "4.38%"}
{"Compound": "Cc1cc2c(c(=O)o1)C=C1CCC(C(C)CNCc3ccc(O)cc3)CC1O2 (stereo not shown)", "test system": "mouse, plasma", "setting": "intravenous, dose not given", "endpoint": "AUC", "result": "16500 ng·h/mL"}
{"note": "Some of these lines once more:"}
{"Compound": "CCC(=O)N(C)c1ccc(Cl)c(Cl)c1", "test": "LC-MS/MS", "test system": "mouse C57BL/6 female, plasma", "setting": "intravenous, 2 mg/kg", "endpoint": "AUC extrapolated", "result": "3.96%"}
